Published values of several laboratories.
Target: Non-receptor tyrosine-protein kinase TNK1 (TNK1, Homo sapiens, UniProt Q13470)

`CC(C)=CC1OC(C)(C)C2C=C3C(=O)C(Cl)=CC(O)C3C3C(O)C4OC4C(=O)C132` (stereo not drawn) gave a remaining binding of 100% (cell-free assay, competition with immobilised ligand; 10 µM).
The remaining binding of `C=CC(=O)N1CCCC(n2c(=O)c3ncccc3n(Cc3ccc(Oc4ccccc4)cc3)c2=O)C1` (stereo not drawn) is reported as 94% (cell-free assay, competition with immobilised ligand; 1 µM).
With `CCn1cc(C(=O)O)c(=O)c2c(N)c(F)c(NC3CCCCC3)cc21` the inhibition was -6.1% (kinase activity; 0.1 µM, together with: ATP at Km).
With `CNC(=O)C1CCN(c2cc(C)c(F)cc2NC(=O)c2ccc(-c3cc(O)ccc3C)c(C)c2)CC1` the remaining binding was 100% (binding, competition with immobilised ligand; 1 µM).
`C=C1C[C@]2(C(=O)OC)C=C(C(=O)Nc3cccc(C(=O)Nc4ccc(Nc5nccc(-c6cccnc6)n5)c(C)c4)c3)C(=O)[C@H]1C2` gave a remaining binding of 100% (binding, competition with immobilised ligand; 1 µM).
The remaining binding of `COc1cc(Nc2nc(C)cc(-c3cnn4nc(OC)ccc34)n2)cc(C(F)(F)F)c1` is reported as 80% (binding, competition with immobilised ligand; 1 µM).
For `NC(=O)[C@@H](O)C[C@H]1CCc2sc3ncnc(O[C@H]4CC[C@H](N5CCOCC5)CC4)c3c21`, the inhibition was 16% (enzyme activity, inhibitor; 10 µM).
For `COC(=O)[C@@]1(C)C=C(C(=O)Nc2cccc(C(=O)Nc3ccc(Nc4nccc(-c5cccnc5)n4)c(C)c3)c2)C(=O)CC1`, the remaining activity was 38% (enzyme activity, inhibitor, radiometric; 1 µM).
`CCN1CCN(Cc2ccc(NC(=O)c3ccc(C)c(NC(=O)c4cncc(-c5cnn(C)c5)c4)c3)cc2C(F)(F)F)CC1` has a remaining binding of 49% (binding, competition with immobilised ligand; 1 µM).
`CCN1CCN(Cc2ccc(C(=O)Nc3ccc(C)c(NCc4cnc5[nH]ccc5c4OC)c3)cc2C(F)(F)F)CC1` has a remaining binding of 39% (binding, competition with immobilised ligand; 1 µM).
With `COc1c(Cl)cccc1Nc1c(-c2ccncc2C#C[C@@]2(C)CCCN2C(=O)/C=C/CN(C)C)[nH]c2c1C(=O)NCC2` the remaining binding was 94% (binding, competition with immobilised ligand; 3 µM).
`Cc1ccc(C(=O)Nc2ccc(CN3CCN(C)CC3)c(C(F)(F)F)c2)cc1C#Cc1cnc2cccnn12` gave an upper asymptote of 96 (target engagement, NanoBRET; human cells).

For quick reference, copied from above:
With `CNC(=O)C1CCN(c2cc(C)c(F)cc2NC(=O)c2ccc(-c3cc(O)ccc3C)c(C)c2)CC1` the remaining binding was 100% (binding, competition with immobilised ligand; 1 µM).
